# Measurements of several laboratories.
# Protocols differ between the studies behind these lines. Several values in a cell are separate wells, animals, samples, runs or records. Numbers after ± are the reported error.
SMILES,assay,test system,setting,how to read,quantity,result
OC(CCN1CCCCC1)(c1ccccc1)C1CC2C=CC1C2 (stereo not shown),resting-state EEG,healthy elderly humans,"oral, 2 mg, eyes open, LS mean",,"EEG power, alpha, Fz-Cz",4.5 µV²
CCN(Cc1nc2c(N)nc3cc(-c4cc[nH]n4)ccc3c2[nH]1)C(C)=O,"immunohistochemistry, measured: CD8+ T cells","patients with advanced solid tumours, non-injected tumour lesions","dose not given, monotherapy",,patients with increased CTLs,67%
CN(C(=O)n1cnc(-c2ccc[n+]([O-])c2)c1)C1CCCCC1,measured: PEA,"human, plasma",1.25 mg single dose,,AUC(0-t),282 ng·h/mL
O=C(COc1ccc(Cl)cc1)NC12CC(c3nnc([C@H]4C[C@@H](OC(F)(F)F)C4)o3)(C1)C2,measured: CHAC1,"PBMC ex vivo stimulated, human ALS patients","100 mg, D7 predose",baseline: baseline,mRNA level change,-67.5%
Cc1oncc1C(=O)Nc1ccc(C(F)(F)F)cc1,measured: dihydroorotate,"female CD-1 mice, blood","oral, 10 mg/kg daily, 24 h after dose 10, 10-day dosing",,DHO concentration,12.3 ± 4.26 µM
N#Cc1ccc2c(-c3ccncc3)c(-c3ccc(F)cc3)nn2c1,"kinase binding, competitor, MIB/MS competition, measured: HRR25",Candida albicans cell lysate,10 µM,baseline: DMSO,log2 fold change,-2.68
CC(C)NCC(O)c1ccc(O)c(O)c1 (stereo not shown),,"ventricular cardiomyocytes, C57BL/6 mouse","dose not given, 0.856 s",,sarcomere length,1.5 µm
Oc1nc2nonc2cc1Nc1c(F)c(F)c(F)c(F)c1F,,"obese C57BL/6J mice, Western diet 19 weeks","oral gavage, 130 mg/kg/day, fasted",,serum glucose and insulin,decreased
O=C(O)CNC(=O)Cc1ccccc1,,"ventricular cardiomyocytes, C57BL/6 mouse","dose not given, 0.62 s",,sarcomere length,1.69 µm
CCc1c(C)nc(-c2ccc(Cl)s2)nc1Nc1ccc(CC(=O)O)cc1,,"mice, chronic ethanol plus binge","intraperitoneal, 0.3 mg/kg daily, ethanol diet 4 weeks, dosed last two",baseline: vehicle,serum total bilirubin,no effect
CN(CCOc1ccc(CC2SC(=O)NC2=O)cc1)c1ccccn1 (racemic),indirect calorimetry,lean mice,"dose not given, average over 72 h, end of treatment",,locomotor activity,762 ± 352 counts/20 min
COc1ccc(-n2nc(C(N)=O)c3c2C(=O)N(c2ccc(N4CCCCC4=O)cc2)CC3)cc1,calibrated automated thrombogram,"healthy dog, plasma","oral, 0.5 mg/kg every 12 h",baseline: baseline,thrombin generation lag time,increased
CCCOc1ccc(-c2ccc(C#N)cc2)cc1,proteomics,rat placenta,"1 µg/mL, middle dose",baseline: control,number of downregulated proteins,385
NC(=O)c1cnc2[nH]ccc2c1N[C@@H]1[C@@H]2CC3C[C@H]1C[C@@](O)(C3)C2,"CD4+ memory T cells, flow cytometry","Caucasian humans, peripheral blood",20 mg single dose,baseline: baseline,percent change,-1.27%
CCN1CCN(Cc2ccc(Nc3ncc(F)c(-c4cc(F)c5nc6n(c5c4)[C@H](C)CCC6)n3)nc2)CC1,,human advanced solid tumours,"100 mg, phase Ia monotherapy RECIST 1.1",,partial response,0%
N=C(N)NCCC[C@@H](NC(=O)CCOCCOCCNC(=O)[C@H](CCCCNC(=O)CC[C@H](NC(=O)c1ccc(NCc2cnc3nc(N)[nH]c(=O)c3n2)cc1)C(=O)O)NC(=O)CO/N=C/[C@H](F)[C@@H](O)[C@H](O)[C@H](O)CO)C(=O)NCC(=O)N[C@H](CC(=O)O)C(N)=O [fluorine-18 labelled],,"female nude mice, MDA-MB-231 xenograft, tumour","intravenous, 45 min",,tumour uptake,3.3 ± 0.79 %ID/g
C[C@]12CC[C@@H]3c4ccc(O)cc4C[C@@H](CCCCCCCCC[S+]([O-])CCCC(F)(F)C(F)(F)F)[C@H]3[C@@H]1CC[C@@H]2O (stereo partly shown),,female nude mouse LCC2 xenograft,"2.0 mg/kg, day 17, tamoxifen-resistant",,tumour volume,177 mm3 and 121 mm3 and 142 mm3 and 140 mm3 and 138 mm3 and 186 mm3
COc1ncc(-c2nc3c(n2C(C)C)[C@H](c2ccc(Cl)cc2)N(c2cc(Cl)cn(C)c2=O)C3=O)c(OC)n1,"antileukemic activity, measured: treatment failure, indeterminate cause","human, acute myeloid leukaemia","120 mg, high-dose, RDE, IWG criteria",,best overall response,0%
OCC(O)CO,ELISA,"Mus musculus female wild type, serum","drinking water, 5% w/v, 2 days",,FGF21 level,240 pg/mL and 202 pg/mL and 538 pg/mL and 264 pg/mL and 513 pg/mL and 235 pg/mL
COc1ccc(F)cc1C(=O)NCc1ccc(-c2nn([C@@H](C)C(F)(F)F)c(N)c2C(N)=O)cc1,,"OCI-Ly10, mouse xenograft","oral, 10 mg/kg twice daily, day 28, 672 h",,tumour growth inhibition,88%
N#Cc1ccc2c(c1)[C@H]1CCCN(C(=O)c3ccc4[nH]cnc4c3)[C@H]1C2,measured: ACTH,"human, Phase II trial","oral, 240 mg once daily, HPA axis, mean",,change from baseline,3.8 pmol/L
CN[C@H](CC(C)C)C(=O)N[C@H]1C(=O)N[C@@H](CC(N)=O)C(=O)N[C@H]2C(=O)N[C@H]3C(=O)N[C@H](C(=O)N[C@H](C(=O)O)c4cc(O)cc(O)c4-c4cc3ccc4O)[C@H](O)c3ccc(c(Cl)c3)Oc3cc2cc(c3O[C@@H]2O[C@H](CO)[C@@H](O)[C@H](O)[C@H]2O[C@H]2C[C@](C)(N)[C@H](O)[C@H](C)O2)Oc2ccc(cc2Cl)[C@H]1O,microbial abundance,human fecal microbiota ex vivo,"100 µg/mL, 48 h",baseline: DMSO,number of species decreased,53
Cc1n[nH]c2ccc(-c3cc(OC[C@@H](N)Cc4ccccc4)cnc3-c3ccoc3)cc12,"kinase binding, competitor, MIB/MS competition, measured: SCH9",Candida albicans cell lysate,10 µM,baseline: DMSO,log2 fold change,-1.05
COc1cc(N2CCC(N3CCN(C)CC3)CC2)ccc1Nc1ncc(Cl)c(Nc2ccccc2P(C)(C)=O)n1,,"nude mice, NCI-H3122 xenograft","intraperitoneal, 10 mg/kg every other day, day 15",,tumour volume,345 mm3 and 275 mm3 and 355 mm3 and 400 mm3 and 195 mm3
C[C@H]1O[C@@H](O[C@H]2CC[C@@]3(C)[C@@H](CC[C@]4(C)[C@@H]3C=C[C@]35OC[C@@]6(CCC(C)(C)C[C@H]63)[C@@H](O)C[C@]54C)[C@]2(C)CO)[C@H](O)[C@@H](O[C@@H]2O[C@H](CO)[C@@H](O)[C@H](O)[C@H]2O)[C@H]1O,"Western blot, measured: PPARα","mice, normal control diet, liver","dose not given, high dose, unit not given",baseline: β-actin,protein level,0.925 and 0.682 and 0.699
C[C@H]1C[C@H]2CSC(N)=N[C@@]2(c2nc(NC(=O)c3ccc(OC(F)F)cn3)cs2)CO1,measured: Aβx-40,"healthy adults, plasma","540 mg single dose, 48 h post-dose",baseline: placebo,percent change from baseline,-72.9%
CC[C@H](C)[C@H](NC(=O)[C@H](C)NC(=O)CNC(=O)[C@H](Cc1ccccc1)NC(=O)[C@H](CC(N)=O)NC(=O)[C@H](CC(N)=O)NC(=O)[C@H](CO)NC(=O)[C@H](CO)NC(=O)[C@H](Cc1c[nH]cn1)NC(=O)[C@@H](NC(=O)[C@H](CC(C)C)NC(=O)[C@H](Cc1ccccc1)NC(=O)[C@H](CC(N)=O)NC(=O)[C@H](C)NC(=O)[C@H](CC(C)C)NC(=O)[C@H](CCCNC(=N)N)NC(=O)[C@H](CCC(N)=O)NC(=O)[C@@H](NC(=O)[C@H](C)NC(=O)[C@@H]1CSSC[C@H](NC(=O)[C@@H](N)CCCCN)C(=O)N[C@@H](CC(N)=O)C(=O)N[C@@H]([C@@H](C)O)C(=O)N[C@@H](C)C(=O)N[C@@H]([C@@H](C)O)C(=O)N1)[C@@H](C)O)C(C)C)C(=O)N[C@@H](CC(C)C)C(=O)N[C@@H](CO)C(=O)N[C@@H](CO)C(=O)N[C@H](C(=O)N[C@@H](CC(N)=O)C(=O)N[C@H](C(=O)NCC(=O)N[C@@H](CO)C(=O)N[C@@H](CC(N)=O)C(=O)N[C@H](C(=O)N[C@@H](Cc1ccc(O)cc1)C(N)=O)[C@@H](C)O)C(C)C)[C@@H](C)O,live/dead staining,isolated mouse islets,"10 µM, 24 h",,viability,60.4% and 56.8%
C[C@@H]1COCCN1c1cc([C@]2(O)C[C@H]3CC[C@@H](C2)O3)c2cnn(-c3cc[nH]n3)c2n1,,CW-2 colon xenograft mice,"5 mg/kg once daily for 7 days, day 14",,tumour growth inhibition,41.1 ± 7%

# For quick reference, copied from above:
SMILES,assay,test system,setting,how to read,quantity,result
OCC(O)CO,ELISA,"Mus musculus female wild type, serum","drinking water, 5% w/v, 2 days",,FGF21 level,240 pg/mL and 202 pg/mL and 538 pg/mL and 264 pg/mL and 513 pg/mL and 235 pg/mL
C[C@]12CC[C@@H]3c4ccc(O)cc4C[C@@H](CCCCCCCCC[S+]([O-])CCCC(F)(F)C(F)(F)F)[C@H]3[C@@H]1CC[C@@H]2O (stereo partly shown),,female nude mouse LCC2 xenograft,"2.0 mg/kg, day 17, tamoxifen-resistant",,tumour volume,177 mm3 and 121 mm3 and 142 mm3 and 140 mm3 and 138 mm3 and 186 mm3
OC(CCN1CCCCC1)(c1ccccc1)C1CC2C=CC1C2 (stereo not shown),resting-state EEG,healthy elderly humans,"oral, 2 mg, eyes open, LS mean",,"EEG power, alpha, Fz-Cz",4.5 µV²
